Measurements of several laboratories.
Parts stem from different laboratories: compare values within a part only. Changes are numbered by the printed parent chain.

Set 1 — technique: protein-binding microarray; molecule type: double-stranded DNA, one strand shown; matrix: in vitro; tested at: not given; direction: higher = stronger binding
Target: Protein C-ets-1 (ETS1, Homo sapiens, UniProt P14921, residues 1-441, full length assumed)
UniProt P14921, sequence (whole entry, looked up): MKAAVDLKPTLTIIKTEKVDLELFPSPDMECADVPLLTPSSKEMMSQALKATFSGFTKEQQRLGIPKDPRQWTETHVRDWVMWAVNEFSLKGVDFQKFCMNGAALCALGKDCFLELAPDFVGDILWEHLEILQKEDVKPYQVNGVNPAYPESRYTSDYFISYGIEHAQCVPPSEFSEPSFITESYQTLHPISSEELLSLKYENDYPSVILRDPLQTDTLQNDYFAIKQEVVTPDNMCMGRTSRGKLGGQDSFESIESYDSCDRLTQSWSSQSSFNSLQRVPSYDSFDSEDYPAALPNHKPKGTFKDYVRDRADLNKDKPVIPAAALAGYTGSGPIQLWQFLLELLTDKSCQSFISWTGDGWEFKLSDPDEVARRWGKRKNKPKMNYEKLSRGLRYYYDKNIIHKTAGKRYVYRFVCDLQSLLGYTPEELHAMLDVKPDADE
Setting: k-mer, scored over probes, only values ≥0.25
Sequence	E-score
CCCGTCCG	0.338
GGAAACCC	0.379
ACATCCCG	0.421
ATCACCGG	0.295
GGAAATGA	0.44
ATGTCCGG	0.444
ATTACCGG	0.27

Set 2 — technique: RNA Bind-n-Seq; molecule type: RNA; matrix: in vitro; tested at: 365 nM; relative to: no-protein control; direction: higher = stronger binding
Target: RNA binding protein fox-1 homolog 2, RRM domain, GST-SBP tag (RBFOX2, Homo sapiens, UniProt O43251-10, residues 100-194)
Setting: natural RNA segment, single round, ends assumed
Shared flanks, not repeated: GGGAGUUCUACAGUCCGACGAUC … UGGAAUUCUCGGGUGCCAA
Residues (chain): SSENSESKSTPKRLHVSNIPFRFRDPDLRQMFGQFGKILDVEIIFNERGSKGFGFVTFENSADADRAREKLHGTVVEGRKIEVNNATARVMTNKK
Sequence	RBNS enrichment (R)
CUGGGCCCAGCCCAGGGUCUGACUAUCCUAGGCGUCUUCUGAGAAGGCUUUUUCAGGGAAAACAAACAAACCGAUUUUAUAAGUCCAAUCAUCCCCGUGACCUCCUCAGC	0.236
AGAGUUCACUGUUGUACACAGUCUGUUUUCUAUUUGUUAAGAAAAACUACAGCAUCAUUGCAUACUUCUUGAUGGUAAUAAAUUUGAAUAAUCAAGAUUUCUUACACACU	1.11
GUAGACUAAAAGCCUAGAAGUUCUGCCCACAUCCUUAUGACGCAGCCAAUCUGGAGCUUCAUGUUUCCUUCUAAAAGUAGUAACCGGGUAGAAGUGGGUGACCCAUUGAG	0.361
UCAUUGUCACAGAAAAACCAACUAUGAUUUAUGGUUGUGUUUUCAGAAUUCAACAUUAAAGAUUAAUGUUUAUUUAAACGAACACAUUCCUGCAUUCAGGAUGUGAGGCC	0.291
GGAGCAGGGCAGCUCUACCAGGCAAGGUGUUUCCCCAGCAUAGGCGCAGACAGUUGGGACGAAACUUCAGAGCCCAGGCAGUCCCUGAAUGACCAGGCCAGUGUUGUCAC	0.457
AGUUUAAGUGUUUGAACAACUAUAUGCACUUACGGUUGUGUGUUUAAAAUGUCUCUCUCACCCCCUAGCUUCAUGAUGUGACUCUUAAAAAACUAUAAUAGUUAACAACU	0.374
GCUUUUUAUUCUAUGAAAACAAUCCUUUUGGGGAAUGUACCUGAAGAGUACAGAGGAGCAAGUUCCCAGAGCAGCAGCCACGGCAUCGUGGCCUGCAGGUGCACCCUCCU	0.393

Set 3 — target: CCNE2, cyclin fold, Cln2 fusion (human); technique: yeast growth competition, sequencing; matrix: yeast; setting: strong parent motif; relative to: not given; direction: higher = stronger binding
Starting sequence: BRCA2 docking peptide (human); PSIKRNLLNEFDR
Change	normalised enrichment score
PSIKTNLLNEFDR [R5T]	-0.54
PSIKRNLLNEFGR [D12G]	1.73
HSIKRNLLNEFDR [P1H]	2.74
PSIKRVLLNEFDR [N6V]	0.241
PCIKRNLLNEFDR [S2C]	1.26
PSYKRNLLNEFDR [I3Y]	3.83
PSIKYNLLNEFDR [R5Y]	-0.429
PSIKENLLNEFDR [R5E]	-0.173

Single results of other studies
Substance	target	test	system	setting	how to read	measurement	result
PhoQ, residues 284 288 289 292 302 303 GASLAW	PhoP, residues 12 14 15 18 19 SQCLL (Escherichia coli, UniProt P23836)	Sort-seq, refers to: YFP reporter	E. coli	PhoQ-PhoP variant library, added: 10 µM Mg2+	relative to: high Mg2+ state, higher = stronger signaling	fold induction	14.5

A few entries again (set 3):
Change	normalised enrichment score
PSIKRVLLNEFDR [N6V]	0.241
PCIKRNLLNEFDR [S2C]	1.26
PSYKRNLLNEFDR [I3Y]	3.83
